{"data": "Results from different studies", "note": "Lines come from different studies, so protocols differ. ± marks the error that the study gave."}
{"SMILES": "O=C(CN1CCCC2=CC3CC(CN4CCCCC34)C21)Nc1ccc(Cl)cc1 (stereo not drawn)", "cell line": "Huh-7", "test": "cytotoxicity", "CC50 [µM]": "> 267"}
{"SMILES": "c1nc(N2CCCCC2)ncc1CNC12CC3CC(CC(C3)C1)C2", "cell line": "A549", "test": "MTT", "CC50 [µM]": 72.1}
{"SMILES": "O=C(CCN(CCC(=O)N[C@@H](Cc1c[nH]c2ccccc12)C(=O)O)C(=O)CCN(CCC(=O)N(CCC(=O)N[C@@H](Cc1c[nH]c2ccccc12)C(=O)O)CCC(=O)N[C@@H](Cc1c[nH]c2ccccc12)C(=O)O)C(=O)[C@H]1C[C@@H](C(=O)N(CCC(=O)N(CCC(=O)N[C@@H](Cc2c[nH]c3ccccc23)C(=O)O)CCC(=O)N[C@@H](Cc2c[nH]c3ccccc23)C(=O)O)CCC(=O)N(CCC(=O)N[C@@H](Cc2c[nH]c3ccccc23)C(=O)O)CCC(=O)N[C@@H](Cc2c[nH]c3ccccc23)C(=O)O)C[C@@H](C(=O)N(CCC(=O)N(CCC(=O)N[C@@H](Cc2c[nH]c3ccccc23)C(=O)O)CCC(=O)N[C@@H](Cc2c[nH]c3ccccc23)C(=O)O)CCC(=O)N(CCC(=O)N[C@@H](Cc2c[nH]c3ccccc23)C(=O)O)CCC(=O)N[C@@H](Cc2c[nH]c3ccccc23)C(=O)O)C1)N[C@@H](Cc1c[nH]c2ccccc12)C(=O)O", "cell line": "MT4", "CC50 [µM]": "> 100"}
{"SMILES": "CCCCCCCCCCCCC1O[C@@H]2C[C@H]3[C@@H]4CCC5=CC(=O)C=C[C@]5(C)[C@H]4[C@@H](O)C[C@]3(C)[C@]2(C(=O)CO)O1 (stereo partly drawn)", "cell line": "human cells", "CC50 [µM]": "> 30"}
{"SMILES": "CC(C)C[C@H](NC(=O)[C@H](Cc1c[nH]cn1)NC(=O)[C@H](Cc1ccc(O)cc1)NC(=O)[C@H](CCCNC(=N)N)NC(=O)[C@H](Cc1ccc(O)cc1)NC(=O)[C@H](CCCCN)NC(=O)[C@@H](N)CCCCN)C(=O)N[C@@H](CCCCN)C(=O)N1CCC[C@H]1C(=O)N[C@@H](Cc1ccccc1)C(=O)NCCCC[C@H](NC(=O)[C@H](Cc1ccccc1)NC(=O)[C@@H]1CCCN1C(=O)[C@H](CCCCN)NC(=O)[C@H](CC(C)C)NC(=O)[C@H](Cc1c[nH]cn1)NC(=O)[C@H](Cc1ccc(O)cc1)NC(=O)[C@H](CCCNC(=N)N)NC(=O)[C@H](Cc1ccc(O)cc1)NC(=O)[C@H](CCCCN)NC(=O)[C@@H](N)CCCCN)C(N)=O", "cell line": "Swiss mouse peritoneal macrophages", "test": "MTT", "CC50 [µM]": "> 2000"}
{"SMILES": "COc1ccc2nc3ccc(Cl)cc3c(Nc3cc(CN4CCCC4)c(O)c(CN4CCCC4)c3)c2c1", "cell line": "U2OS-ACE2-GFP", "setting": "20 (unit not given)", "CC50 [µM]": 5.19}
{"SMILES": "CC[C@H](C)[C@H](NC(=O)[C@H](CCCN)NC(=O)[C@H](CC(N)=O)NC(=O)[C@H](Cc1c[nH]c2ccccc12)NC(=O)[C@H](Cc1ccccc1)NC(=O)[C@H](CCCN)NC(=O)[C@H](CCCCNC(=N)N)NC(=O)[C@H](CC(C)C)NC(=O)[C@H](Cc1c[nH]c2ccccc12)NC(=O)[C@H](CCCN)NC(=O)[C@H](CCCCNC(=N)N)NC(=O)[C@H](CC(C)C)NC(=O)CNC(C)=O)C(=O)N[C@@H](CCCN)C(=O)N[C@@H](CCCCNC(=N)N)C(N)=O", "cell line": "T cells", "test": "CCK-8", "setting": "24 h", "CC50 [µM]": 43.1}
{"SMILES": "O=C(CCNC(=O)c1ccc(OC(F)(F)F)cc1)N[C@@H]1CCCc2ccccc21", "cell line": "Calu-3", "test": "cell growth or viability", "setting": "72 h", "CC50 [µM]": 91}
{"SMILES": "COc1ccc2nc3ncccc3c(Nc3cc(CN4CCCC4)c(O)c(CN4CCCC4)c3)c2c1", "cell line": "U2OS-ACE2-GFP", "setting": "20 (unit not given)", "CC50 [µM]": 26.3}
{"SMILES": "O=C(CN1CCCC2=CC3CC(CN4CCCCC34)C21)Nc1cc(Br)ccc1F (stereo not drawn)", "cell line": "Huh-7", "test": "cytotoxicity", "CC50 [µM]": 222}
{"SMILES": "CCc1ccc(COP(=O)(O)Oc2c3c(c(OP(=O)(O)OCc4ccc(CC)cc4)c4c2C2CC4c4cc5c(cc42)C2CC5c4ccccc42)C2CC3c3cc4c(cc32)C2CC4c3ccccc32)cc1", "cell line": "Caco-2", "test": "CellTiter-Glo", "setting": "2 days", "CC50 [µM]": 106}
{"SMILES": "CC(C)OC(=O)[C@H](C)N[P@](=O)(OC[C@H]1O[C@@H](n2ccc(=O)[nH]c2=O)[C@@](F)(Br)[C@@H]1O)Oc1ccccc1", "cell line": "CEM", "test": "MTS", "setting": "4 days", "CC50 [µM]": "> 100"}
{"SMILES": "CN(C)CCNC(=O)c1cc(-c2ccccc2)nc2ccccc12", "cell line": "Vero C1008", "test": "neutral red uptake", "CC50 [µM]": 116}
{"SMILES": "CC(C)C1=CC2=CC[C@@H]3[C@](C)(CCC[C@@]3(C)C(=O)OCC#CCN3CCCC3)[C@H]2CC1", "cell line": "MDCK", "test": "cytotoxicity, MTT", "setting": "48 h", "CC50 [µM]": 41}
{"SMILES": "O=S(=O)(c1ccc(Cl)c(Cl)c1)N1CCCC2=CC3CC(CN4CCCCC34)C21 (stereo not drawn)", "cell line": "Huh-7", "test": "cytotoxicity", "CC50 [µM]": "> 267"}
{"SMILES": "CC[C@H](C)[C@H](NC(=O)[C@H](CCCCN)NC(=O)[C@H](CC(N)=O)NC(=O)[C@H](Cc1c[nH]c2ccccc12)NC(=O)[C@H](Cc1ccccc1)NC(=O)[C@H](CCCCN)NC(=O)[C@H](CCCNC(=N)N)NC(=O)[C@H](CC(C)C)NC(=O)[C@H](Cc1c[nH]c2ccccc12)NC(=O)[C@H](CCCCN)NC(=O)[C@H](CCCNC(=N)N)NC(=O)[C@H](CC(C)C)NC(=O)CNC(C)=O)C(=O)N[C@@H](CCCCN)C(=O)N[C@@H](CCCNC(=N)N)C(N)=O", "cell line": "T cells", "test": "CCK-8", "setting": "24 h", "CC50 [µM]": 36.7}
{"SMILES": "COc1ccc2nc3ccc(C(F)(F)F)cc3c(Nc3cc(CN4CCCC4)c(O)c(CN4CCCC4)c3)c2c1", "cell line": "U2OS-ACE2-GFP", "setting": "20 (unit not given)", "CC50 [µM]": 4.36}
{"SMILES": "C=C1C(=O)OC2C1CCC(C)=C1C(OC(=O)Nc3ccc(C(F)(F)F)cc3)CC(C)(O)C12 (stereo not drawn)", "cell line": "MV4-11", "test": "cell viability, alamarBlue", "setting": "24 h", "CC50 [µM]": "2.9 ± 0.6"}
{"SMILES": "COc1ccccc1/C=C/[N+](=O)[O-]", "cell line": "healthy human PBMC", "test": "Hoechst/PI staining", "setting": "72 h, FBS 1%", "CC50 [µM]": "10.7 ± 1.11"}
{"SMILES": "Clc1ccc(CN2CCCC3=CC4CC(CN5CCCCC45)C32)cc1Cl (stereo not drawn)", "cell line": "Huh-7", "test": "cytotoxicity", "CC50 [µM]": 147}
{"SMILES": "C#CCCCCOP(=O)(O)Oc1c2c(c(OP(=O)(O)OCCCCC#C)c3c1C1CC3c3cc4c(cc31)C1CC4c3ccccc31)C1CC2c2cc3c(cc21)C1CC3c2ccccc21", "cell line": "Caco-2", "test": "CellTiter-Glo", "setting": "2 days", "CC50 [µM]": "> 300"}
{"SMILES": "CCCC[C@@H](O)C[C@@H](C)C[C@H](NC(=O)[C@@H]1C[C@H](C)CN1C(=O)/C=C/[C@@H](C)CC)C(=O)N[C@H](C(=O)NC(C)(C)C(=O)N[C@@H](CC(C)C)C(=O)N[C@@H](CC(C)C)C(=O)NC(C)(C)C(=O)NC(C)(C)C(=O)NCCC(=O)N[C@@H](C)CNC)[C@H](O)C(C)C", "cell line": "C2C12", "test": "cell growth or viability, imaging", "setting": "72 h", "CC50 [µM]": "> 1.5"}
{"SMILES": "Cc1ccc(COP(=O)(O)Oc2c3c(c(OP(=O)(O)OCc4ccc(C)cc4)c4c2C2CC4c4cc5c(cc42)C2CC5c4ccccc42)C2CC3c3cc4c(cc32)C2CC4c3ccccc32)cc1", "cell line": "Caco-2", "test": "CellTiter-Glo", "setting": "2 days", "CC50 [µM]": 77.4}
{"SMILES": "Cc1cc(C)cc(NC(=O)N2CCCC3=CC4CC(CN5CCCCC45)C32)c1 (stereo not drawn)", "cell line": "Huh-7", "test": "cytotoxicity", "CC50 [µM]": "> 267"}
{"SMILES": "OC[C@H]1[C@@H](O)[C@@H](O)CN1Cc1ccccc1", "cell line": "BJ", "test": "MTS", "setting": "72 h", "CC50 [µM]": "> 200"}
{"SMILES": "COc1ccc2nc3ccc(F)cc3c(Nc3cc(CN4CCCC4)c(O)c(CN4CCCC4)c3)c2c1", "cell line": "U2OS-ACE2-GFP", "setting": "20 (unit not given)", "CC50 [µM]": 3.74}
{"SMILES": "CC(C)OC(=O)C(C)NP(=O)(OCC1OC(n2ccc(=O)[nH]c2=O)C(F)(Cl)C1O)Oc1ccccc1 (stereo not drawn)", "cell line": "CEM", "test": "MTS", "setting": "4 days", "CC50 [µM]": "> 100"}
{"SMILES": "O=P(O)(OCc1cccc2ccccc12)Oc1c2c(c(OP(=O)(O)OCc3cccc4ccccc34)c3c1C1CC3c3cc4c(cc31)C1CC4c3ccccc31)C1CC2c2cc3c(cc21)C1CC3c2ccccc21", "cell line": "Caco-2", "test": "CellTiter-Glo", "setting": "2 days", "CC50 [µM]": 75.9}
{"SMILES": "CC[C@H](C)[C@H](NC(=O)[C@H](CCCN)NC(=O)[C@H](CC(N)=O)NC(=O)[C@H](Cc1c[nH]c2ccccc12)NC(=O)[C@H](Cc1ccccc1)NC(=O)[C@H](CCCN)NC(=O)[C@H](CCCNC(=N)N)NC(=O)[C@H](CC(C)C)NC(=O)[C@H](Cc1c[nH]c2ccccc12)NC(=O)[C@H](CCCN)NC(=O)[C@H](CCCNC(=N)N)NC(=O)[C@H](CC(C)C)NC(=O)CNC(C)=O)C(=O)N[C@@H](CCCN)C(=O)N[C@@H](CCCNC(=N)N)C(N)=O", "cell line": "T cells", "test": "CCK-8", "setting": "24 h", "CC50 [µM]": 20.5}
{"SMILES": "C1CCCCCC2(CCCCC1)OOCCCOO2", "cell line": "PLC-PRF-5", "test": "cell growth or viability, MTS", "setting": "72 h", "CC50 [µM]": 59}
{"SMILES": "CC(C)C1=C[C@@]23CC[C@@H]4[C@](C)(CCC[C@@]4(C)C(=O)NCC#CCN4CCCNCC4)[C@H]2C[C@@H]1[C@H]1C(=O)OC(=O)[C@H]13", "cell line": "MDCK", "test": "cytotoxicity, MTT", "setting": "48 h", "CC50 [µM]": 140}
{"SMILES": "CC=CCCCCOP(=O)(O)Oc1c2c(c(OP(=O)(O)OCCCCC=CC)c3c1C1CC3c3cc4c(cc31)C1CC4c3ccccc31)C1CC2c2cc3c(cc21)C1CC3c2ccccc21", "cell line": "Caco-2", "test": "CellTiter-Glo", "setting": "2 days", "CC50 [µM]": 240}
{"SMILES": "COc1cccc(CN2CCCC3=CC4CC(CN5CCCCC45)C32)c1 (stereo not drawn)", "cell line": "Huh-7", "test": "cytotoxicity", "CC50 [µM]": "> 267"}
{"SMILES": "Oc1ccc(Nc2c3ccc(Cl)cc3nc3ccc(Cl)cc23)cc1CN1CCCC1", "cell line": "U2OS-ACE2-GFP", "setting": "20 (unit not given)", "CC50 [µM]": 19.3}
{"SMILES": "O=C(c1ccc(Cl)cc1)N1CCCC2=CC3CC(CN4CCCCC34)C21 (stereo not drawn)", "cell line": "Huh-7", "test": "cytotoxicity", "CC50 [µM]": "> 267"}
{"SMILES": "CC(C)COP(=O)(O)Oc1c2c(c(OP(=O)(O)OCC(C)C)c3c1C1CC3c3cc4c(cc31)C1CC4c3ccccc31)C1CC2c2cc3c(cc21)C1CC3c2ccccc21", "cell line": "Caco-2", "test": "CellTiter-Glo", "setting": "2 days", "CC50 [µM]": 128}
{"SMILES": "Oc1ccc(Nc2c3cc(Cl)ccc3nc3ccc(Cl)cc23)cc1CN1CCCC1", "cell line": "U2OS-ACE2-GFP", "setting": "20 (unit not given)", "CC50 [µM]": 4.26}
{"SMILES": "CC(C)(C)SSc1ccccc1CCOP1(=O)OC[C@H]2O[C@@H](n3ccc(=O)[nH]c3=O)[C@](C)(F)[C@@H]2O1 (stereo partly drawn)", "cell line": "CEM", "test": "MTS", "setting": "4 days", "CC50 [µM]": 31.6}
{"SMILES": "C=C(C)[C@@H]1CC[C@]2(CO)CC[C@]3(C)[C@H](CC[C@@H]4[C@@]5(C)CCCNC(C)(C)[C@@H]5CC[C@]43C)[C@@H]12", "cell line": "HFF primary foreskin fibroblasts", "test": "cell viability, CellTiter-Glo", "CC50 [µM]": 18.7}
{"SMILES": "Cc1ccc(NCCN(C)CCNc2ccnc3cc(Cl)ccc23)c2c(=O)c3ccccc3sc12", "cell line": "Vero E6, HeLa, HEK293T, Huh7.5", "test": "nuclei count", "setting": "16 h, mean of four cell lines", "CC50 [µM]": "> 25"}
{"SMILES": "[N-]=[N+]=NCCOP(=O)(O)Oc1c2c(c(OP(=O)(O)OCCN=[N+]=[N-])c3c1C1CC3c3cc4c(cc31)C1CC4c3ccccc31)C1CC2c2cc3c(cc21)C1CC3c2ccccc21", "cell line": "Caco-2", "test": "CellTiter-Glo", "setting": "2 days", "CC50 [µM]": "> 300"}
{"SMILES": "O=C(CNc1ccc(OC(F)(F)F)cc1)N1CCCC2=CC3CC(CN4CCCCC34)C21 (stereo not drawn)", "cell line": "Huh-7", "test": "cytotoxicity", "CC50 [µM]": 118}
